Measured values gathered from unrelated publications.
A part holds a random share of what one study measured. Substitutions count along the parent as printed.

Sample 1
Target: RNA binding protein fox-1 homolog 2, RRM domain, GST-SBP tag (RBFOX2, Homo sapiens, UniProt O43251-10, residues 100-194)
Method: RNA Bind-n-Seq
Form: RNA
Matrix: in vitro
Concentration: 365 nM
Notes: natural RNA segment, single round, ends assumed
Baseline: no-protein control
Direction: higher = stronger binding
Shared flanks, not repeated: GGGAGUUCUACAGUCCGACGAUC … UGGAAUUCUCGGGUGCCAA
Construct (chain): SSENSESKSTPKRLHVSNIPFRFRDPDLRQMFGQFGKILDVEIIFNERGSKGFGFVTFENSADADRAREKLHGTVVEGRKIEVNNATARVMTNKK
| Strand | RBNS enrichment (R) |
| --- | --- |
| AGAUUGUGGGAGCUUCGCUGAACGUUAAUGUGUAGUAAAUGCACCUCCUUGUAUUCCCACUUUCGUAGUCAUUUCGGUUCUGAUCUUGUCAAACCCAGCCUGACCGCUUC | 0.61 |
| CCUCUUGGAUACUCUGCCCAUUGAGUUCUCGGUGGUACCAGCUACAUGCCAGUUCCUGAGCAUCCUUUAUGUGCAUUUGCAUUCUCAGUGGUCCUGCCUGUAUGCUGGUU | 1.38 |
| AAUUUUUUGCUUCUGGGGACUUGAGUAUUUUUAAAUGUUCUUAAAAUUAUAUGAAUCUACCCAGAAUGUAGAUGUCAAAAUGUAAUUAGAGGCCCCGUGCAGUGGCUCAC | 0.505 |
| UUCUUUCCUGUUCCAUCCAACUUACCCAUCAUGCAGGGACAGCUGAGGUCCACUCGUGACCUAGGCCGCCCCACUCCCAUCCACCGAGAGUCAAGUGAUGACACGACACA | 0.798 |
| UCUCCUCCUGACCCCAGUGGCUGCGGUGAGGGGAACCACCCUCCCUUGCUGCACCAGUGGCCAUUAGCUCCCGUCACCACUGCAACCCAGGGUCCCAGCUGGCUGGGUCC | 0.309 |
| UAUGAGGUUGCUUGCUGCUGGGAAGCCUGGCAGAGCCAAUUACCACCCUCUGCUGCUUAGUGCUUGGGUACCUCUUGCAAUAACCAGCUCUUAGUUGUUCCCUUUCCCUG | 0.289 |
| AAUAAAGCUGUCUGACCCAGGAAAAAAGGAACUAUACAACAUAGUGGAGUCUUGUGUACUAAAGUGCUAUCCGCUGGGCCUUUGGGAUUGAAGCAGUAGAAAGCGAAAAG | 0.48 |
| AAAUGCUUACCGUGUGACCCUUGGGCUUUCAGCGUGCACUCAGUUCCGUAGGAUUCCAAAGCAGACCCCUAGCUGGUCUUUGAAUCUGCAUGUACUUCACGUUUUCUAUA | 9.98 |

Sample 2
Target: CREBRF, bZIP domain (human)
Method: DHFR protein complementation
Matrix: yeast
Notes: single substitutions, most at no-binding floor
Baseline: wild-type JUN-FOS pair
Direction: higher = stronger binding
Parent: JUN, bZIP domain (human); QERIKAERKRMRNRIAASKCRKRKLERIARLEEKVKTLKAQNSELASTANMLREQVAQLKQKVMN; partner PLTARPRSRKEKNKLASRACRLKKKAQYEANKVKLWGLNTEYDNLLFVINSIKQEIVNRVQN
| Change | binding fitness |
| --- | --- |
| K36C | -1.17 natural log |
| L31F | -1.61 natural log |
| E54A | -1.38 natural log |
| N42P | -1.52 natural log |
| V56A | -1.41 natural log |
| L38K | -1.35 natural log |
| K36G | -1.4 natural log |
| S47M | -1.45 natural log |

Sample 3
Target: CCNB2, cyclin fold, Cln2 fusion (human)
Method: yeast growth competition, sequencing
Matrix: yeast
Notes: weak parent motif
Baseline: not given
Direction: higher = stronger binding
Parent: RBL1 docking peptide (human); GSAKRRLFGEDPP; partner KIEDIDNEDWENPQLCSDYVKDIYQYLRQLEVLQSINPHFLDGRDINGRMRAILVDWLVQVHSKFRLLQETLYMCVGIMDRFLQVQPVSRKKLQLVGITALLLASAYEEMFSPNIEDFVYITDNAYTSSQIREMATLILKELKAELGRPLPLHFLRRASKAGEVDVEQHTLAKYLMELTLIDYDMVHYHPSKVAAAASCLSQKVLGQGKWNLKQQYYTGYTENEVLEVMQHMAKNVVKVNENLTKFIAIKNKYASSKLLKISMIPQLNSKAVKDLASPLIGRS
| Change | normalised enrichment score |
| --- | --- |
| DSAKRRLFGEDPP [G1D] | 0.0691 |
| GSAKERLFGEDPP [R5E] | -0.766 |
| GSAKRRLFGEDYP [P12Y] | 0.354 |
| GSAKRRLFGEKPP [D11K] | 0.545 |
| GSAKRRLSGEDPP [F8S] | -0.168 |
| GSAKRRLFGEGPP [D11G] | 0.335 |
| GMAKRRLFGEDPP [S2M] | 0.0404 |
| GSAKRRLFGEDPS [P13S] | -0.0584 |
| GSARRRLFGEDPP [K4R] | -0.0133 |
| GSAKRRCFGEDPP [L7C] | 0.355 |

Mixed results
| Molecule | target | test | system | conditions | how to read | endpoint | result |
| --- | --- | --- | --- | --- | --- | --- | --- |
| PhoQ, residues 284 288 289 292 302 303 WVSSAF | PhoP, residues 12 14 15 18 19 LHSVW (Escherichia coli, UniProt P23836) | Sort-seq, item: YFP reporter | E. coli | PhoQ-PhoP variant library, together with: 10 µM Mg2+ | baseline: high Mg2+ state, higher = stronger signaling | fold induction | 1.93 |

Some of these lines once more (sample 2):
| Change | binding fitness |
| --- | --- |
| E54A | -1.38 natural log |
| K36G | -1.4 natural log |
| K36C | -1.17 natural log |
| N42P | -1.52 natural log |
| L31F | -1.61 natural log |
